# Published values gathered from unrelated publications.
# Compare with care: the assays were run in different laboratories. ± marks the error that the study gave.
# Target: Cholinesterase (BCHE, Equus caballus, UniProt P81908)
# UniProt P81908, sequence (whole entry, looked up): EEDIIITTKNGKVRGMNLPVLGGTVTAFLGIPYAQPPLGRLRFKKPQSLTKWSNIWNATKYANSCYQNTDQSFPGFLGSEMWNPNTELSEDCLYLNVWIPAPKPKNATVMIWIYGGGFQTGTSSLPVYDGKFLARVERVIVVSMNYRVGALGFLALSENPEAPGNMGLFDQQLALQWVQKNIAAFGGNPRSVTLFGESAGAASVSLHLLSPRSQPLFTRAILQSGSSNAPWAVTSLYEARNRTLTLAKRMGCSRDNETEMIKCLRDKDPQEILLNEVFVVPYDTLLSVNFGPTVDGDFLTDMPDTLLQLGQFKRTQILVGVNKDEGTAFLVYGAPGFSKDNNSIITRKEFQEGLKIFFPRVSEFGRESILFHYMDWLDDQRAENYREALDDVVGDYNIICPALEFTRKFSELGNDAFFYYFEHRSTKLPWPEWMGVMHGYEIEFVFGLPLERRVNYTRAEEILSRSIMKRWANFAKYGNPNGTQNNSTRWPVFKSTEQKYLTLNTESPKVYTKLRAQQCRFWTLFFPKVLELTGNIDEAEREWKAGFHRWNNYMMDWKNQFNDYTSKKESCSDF
# Mode: inhibitor
Structure (SMILES),observed,technique,matrix,tested at,added,quantity,value
COc1cc2c(cc1OC)-c1cc3ccc(OC)c(OC)c3c[n+]1CC2,enzyme activity,Ellman,,up to 0.1 µg/mL,,IC50,inactive
C=CCCCCCCCCCOCc1cn(CC2=CC[C@@H]3C(C(=O)OC)=CO[C@@H](O)[C@H]23)nn1,,,horse serum BuChE,10000 µM,,inhibition,31.51 ± 0.14%
COc1cc2c(cc1OC(C)=O)C1Cc3ccc(OC(C)=O)c(OC)c3CN1CC2 (stereo not drawn),enzyme activity,Ellman,,up to 0.1 µg/mL,,IC50,inactive
COc1ccc(Nc2c3c(nc4cc(C)ccc24)CCCC3)nc1,enzyme activity,,,50 µM,,inhibition,-78.2%
COC(=O)C1=CO[C@@H](O)[C@@H]2C(Cn3cc(CO[Si](c4ccccc4)(c4ccccc4)C(C)(C)C)nn3)=CC[C@H]12,,,horse serum BuChE,10000 µM,,inhibition,24.94 ± 0.23%
O=C(/C=C/c1ccc(Br)cc1)c1cc2ccccc2oc1=O,enzyme activity,,,10 µM,,remaining activity,85.4%
CCCCCCCCOCc1cn(CC2=CC[C@@H]3C(C(=O)OC)=CO[C@@H](O)[C@H]23)nn1,,,horse serum BuChE,10000 µM,,inhibition,42.57 ± 0.16%
O=C(/C=C/c1ccc(F)cc1)c1cc2ccccc2oc1=O,enzyme activity,,,10 µM,,remaining activity,75%
COc1ccnc(Nc2c3c(nc4ccc(Cl)cc24)CCCC3)c1,enzyme activity,,,50 µM,,inhibition,< -200%
COC(=O)C1=CO[C@@H](OC(C)=O)[C@@H]2C(Cn3cc(CCCN4C(=O)c5ccccc5C4=O)nn3)=CC[C@H]12,,,horse serum BuChE,10000 µM,,inhibition,71.55 ± 0.22%
O=C(/C=C/c1cccc(F)c1)c1cc2ccccc2oc1=O,enzyme activity,,,10 µM,,remaining activity,55.7%
FC(F)(F)c1cccc(Nc2c3c(nc4ccccc24)CCCC3)c1,enzyme activity,,,50 µM,,inhibition,-132%
"O=CN1CCc2cc3c(c4c2C1Cc1ccccc1-4)OCO3 (single isomer, unassigned; (-))",enzyme activity,Ellman,,up to 0.1 µg/mL,,IC50,inactive
O=C(/C=C/c1ccccc1)c1cc2ccccc2oc1=O,enzyme activity,,,10 µM,,remaining activity,66.1%
Cc1cccnc1Nc1c2c(nc3ccccc13)CCCC2,enzyme activity,,,100 µM,,inhibition,62.4%
COC(=O)C1=CO[C@@H](O)[C@@H]2C(Cn3cc(C(O)(c4ccccc4)c4ccccc4)nn3)=CC[C@H]12,enzyme activity,Ellman Lineweaver-Burk,,,butyrylthiocholine iodide,Ki,100 µM
O=C(/C=C/c1ccccc1F)c1cc2ccccc2oc1=O,enzyme activity,,,10 µM,,remaining activity,75%
Cc1ccc(Nc2c3c(nc4ccccc24)CCCC3)cc1,enzyme activity,,,50 µM,,inhibition,-1.24%

# Repeated from above:
Structure (SMILES),observed,technique,matrix,tested at,added,quantity,value
FC(F)(F)c1cccc(Nc2c3c(nc4ccccc24)CCCC3)c1,enzyme activity,,,50 µM,,inhibition,-132%
